Literature values as cited in several papers.
Lines come from different studies, so protocols differ. Numbers after ± are the reported error. Values after ≈ are worked out from the molar mass of the structure shown.
Chain of UniProt Q6ZN16 (whole entry, looked up): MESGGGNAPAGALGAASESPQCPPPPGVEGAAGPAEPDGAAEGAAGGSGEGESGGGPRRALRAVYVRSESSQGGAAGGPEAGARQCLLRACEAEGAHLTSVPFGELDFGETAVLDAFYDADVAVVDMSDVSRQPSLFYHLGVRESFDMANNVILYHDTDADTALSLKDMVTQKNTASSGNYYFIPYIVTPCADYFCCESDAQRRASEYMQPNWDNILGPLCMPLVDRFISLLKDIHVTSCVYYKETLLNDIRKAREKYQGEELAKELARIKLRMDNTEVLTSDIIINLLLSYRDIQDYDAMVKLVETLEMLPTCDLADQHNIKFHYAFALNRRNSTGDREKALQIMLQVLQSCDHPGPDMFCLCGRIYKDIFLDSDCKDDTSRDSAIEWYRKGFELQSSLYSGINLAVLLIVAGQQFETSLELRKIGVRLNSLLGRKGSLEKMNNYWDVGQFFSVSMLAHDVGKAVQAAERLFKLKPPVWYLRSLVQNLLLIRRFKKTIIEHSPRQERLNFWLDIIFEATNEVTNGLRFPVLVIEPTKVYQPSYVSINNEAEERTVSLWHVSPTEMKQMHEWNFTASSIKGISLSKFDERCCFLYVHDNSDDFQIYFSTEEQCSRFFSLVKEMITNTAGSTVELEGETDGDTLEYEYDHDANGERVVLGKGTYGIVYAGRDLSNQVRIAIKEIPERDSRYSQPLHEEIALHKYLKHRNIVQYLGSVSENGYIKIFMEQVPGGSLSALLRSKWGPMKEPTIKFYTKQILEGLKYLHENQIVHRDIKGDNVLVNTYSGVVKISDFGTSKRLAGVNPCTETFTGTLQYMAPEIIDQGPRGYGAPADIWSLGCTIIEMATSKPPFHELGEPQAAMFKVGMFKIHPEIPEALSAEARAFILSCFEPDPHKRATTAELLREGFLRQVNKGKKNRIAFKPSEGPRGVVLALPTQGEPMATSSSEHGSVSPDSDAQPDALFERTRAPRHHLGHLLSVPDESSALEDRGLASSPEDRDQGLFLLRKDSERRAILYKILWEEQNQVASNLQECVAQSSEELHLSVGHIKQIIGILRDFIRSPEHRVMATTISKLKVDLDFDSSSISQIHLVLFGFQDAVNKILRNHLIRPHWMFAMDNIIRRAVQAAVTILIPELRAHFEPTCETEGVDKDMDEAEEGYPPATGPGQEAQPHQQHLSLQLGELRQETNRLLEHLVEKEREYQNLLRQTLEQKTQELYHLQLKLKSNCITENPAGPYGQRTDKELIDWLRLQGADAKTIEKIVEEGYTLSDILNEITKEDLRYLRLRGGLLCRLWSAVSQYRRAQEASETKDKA
Chain of UniProt P52699 (whole entry, looked up): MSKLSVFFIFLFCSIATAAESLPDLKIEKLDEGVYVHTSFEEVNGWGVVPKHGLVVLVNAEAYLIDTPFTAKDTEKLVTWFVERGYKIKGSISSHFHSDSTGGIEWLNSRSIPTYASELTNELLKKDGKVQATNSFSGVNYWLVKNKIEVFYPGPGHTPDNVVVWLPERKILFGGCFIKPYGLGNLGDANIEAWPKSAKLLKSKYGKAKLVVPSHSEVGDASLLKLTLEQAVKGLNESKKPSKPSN
Chain of UniProt Q9UBS5 (whole entry, looked up): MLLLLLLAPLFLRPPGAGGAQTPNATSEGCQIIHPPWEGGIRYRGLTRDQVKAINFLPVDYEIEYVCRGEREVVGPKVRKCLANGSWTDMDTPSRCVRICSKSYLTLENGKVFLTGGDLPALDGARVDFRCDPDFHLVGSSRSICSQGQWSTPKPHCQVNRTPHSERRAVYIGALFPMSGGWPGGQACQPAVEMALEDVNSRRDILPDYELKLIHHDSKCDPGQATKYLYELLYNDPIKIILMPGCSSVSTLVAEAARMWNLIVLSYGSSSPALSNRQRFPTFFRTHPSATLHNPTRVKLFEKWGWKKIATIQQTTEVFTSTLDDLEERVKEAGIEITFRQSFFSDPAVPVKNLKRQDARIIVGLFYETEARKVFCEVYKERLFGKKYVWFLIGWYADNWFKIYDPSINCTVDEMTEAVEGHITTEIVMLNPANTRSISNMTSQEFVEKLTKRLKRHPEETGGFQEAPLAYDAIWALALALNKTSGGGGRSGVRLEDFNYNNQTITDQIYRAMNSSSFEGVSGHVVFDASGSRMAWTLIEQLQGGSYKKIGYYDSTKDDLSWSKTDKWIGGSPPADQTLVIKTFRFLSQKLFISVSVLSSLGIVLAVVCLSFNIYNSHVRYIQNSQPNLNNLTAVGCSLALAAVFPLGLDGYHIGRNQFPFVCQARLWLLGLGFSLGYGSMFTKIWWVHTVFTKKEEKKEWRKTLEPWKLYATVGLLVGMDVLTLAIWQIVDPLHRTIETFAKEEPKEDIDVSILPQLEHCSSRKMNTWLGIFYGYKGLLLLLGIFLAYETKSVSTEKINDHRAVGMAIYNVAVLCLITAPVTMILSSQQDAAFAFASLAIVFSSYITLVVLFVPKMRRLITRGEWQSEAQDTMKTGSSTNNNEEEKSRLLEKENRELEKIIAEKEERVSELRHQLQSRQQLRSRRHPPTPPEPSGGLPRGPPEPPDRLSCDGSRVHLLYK
Chain of UniProt P42336 (whole entry, unmodified, looked up): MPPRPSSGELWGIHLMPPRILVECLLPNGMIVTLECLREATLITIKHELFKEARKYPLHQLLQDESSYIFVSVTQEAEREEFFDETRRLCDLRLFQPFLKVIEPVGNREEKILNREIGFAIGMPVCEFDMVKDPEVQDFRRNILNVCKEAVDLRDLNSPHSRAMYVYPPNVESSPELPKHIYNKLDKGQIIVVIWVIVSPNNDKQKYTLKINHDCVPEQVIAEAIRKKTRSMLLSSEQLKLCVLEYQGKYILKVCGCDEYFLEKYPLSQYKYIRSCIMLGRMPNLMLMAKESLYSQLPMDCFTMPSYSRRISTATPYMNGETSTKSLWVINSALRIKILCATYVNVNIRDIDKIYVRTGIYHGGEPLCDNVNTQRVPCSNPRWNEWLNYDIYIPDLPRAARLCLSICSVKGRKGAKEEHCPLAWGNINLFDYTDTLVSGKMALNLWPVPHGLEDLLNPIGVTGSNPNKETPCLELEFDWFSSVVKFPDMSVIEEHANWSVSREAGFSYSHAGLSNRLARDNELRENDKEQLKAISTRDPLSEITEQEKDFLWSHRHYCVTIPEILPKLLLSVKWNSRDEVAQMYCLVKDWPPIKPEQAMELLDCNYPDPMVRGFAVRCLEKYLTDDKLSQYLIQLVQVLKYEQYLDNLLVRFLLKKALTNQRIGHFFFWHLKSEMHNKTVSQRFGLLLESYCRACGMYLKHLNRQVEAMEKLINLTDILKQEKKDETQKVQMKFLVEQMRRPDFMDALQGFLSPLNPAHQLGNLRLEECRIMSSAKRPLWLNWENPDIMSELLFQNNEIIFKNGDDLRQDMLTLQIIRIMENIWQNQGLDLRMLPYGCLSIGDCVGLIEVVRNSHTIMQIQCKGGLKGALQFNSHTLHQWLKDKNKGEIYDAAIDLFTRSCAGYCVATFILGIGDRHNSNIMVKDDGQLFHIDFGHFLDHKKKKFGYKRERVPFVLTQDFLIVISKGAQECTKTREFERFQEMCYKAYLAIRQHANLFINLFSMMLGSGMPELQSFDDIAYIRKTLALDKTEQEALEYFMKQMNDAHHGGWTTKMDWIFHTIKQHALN
Chain of UniProt P48039 (whole entry, looked up): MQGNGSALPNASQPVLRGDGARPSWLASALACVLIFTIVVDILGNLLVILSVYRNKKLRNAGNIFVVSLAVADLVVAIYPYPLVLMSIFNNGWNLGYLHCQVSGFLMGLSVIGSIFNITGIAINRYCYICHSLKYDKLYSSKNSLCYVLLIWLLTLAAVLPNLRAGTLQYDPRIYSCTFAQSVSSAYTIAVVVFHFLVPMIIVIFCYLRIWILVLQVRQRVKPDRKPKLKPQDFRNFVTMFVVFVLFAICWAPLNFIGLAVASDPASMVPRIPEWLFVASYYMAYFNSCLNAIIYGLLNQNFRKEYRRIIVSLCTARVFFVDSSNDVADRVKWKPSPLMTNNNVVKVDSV
Chain of UniProt Q8NE63 (whole entry, looked up): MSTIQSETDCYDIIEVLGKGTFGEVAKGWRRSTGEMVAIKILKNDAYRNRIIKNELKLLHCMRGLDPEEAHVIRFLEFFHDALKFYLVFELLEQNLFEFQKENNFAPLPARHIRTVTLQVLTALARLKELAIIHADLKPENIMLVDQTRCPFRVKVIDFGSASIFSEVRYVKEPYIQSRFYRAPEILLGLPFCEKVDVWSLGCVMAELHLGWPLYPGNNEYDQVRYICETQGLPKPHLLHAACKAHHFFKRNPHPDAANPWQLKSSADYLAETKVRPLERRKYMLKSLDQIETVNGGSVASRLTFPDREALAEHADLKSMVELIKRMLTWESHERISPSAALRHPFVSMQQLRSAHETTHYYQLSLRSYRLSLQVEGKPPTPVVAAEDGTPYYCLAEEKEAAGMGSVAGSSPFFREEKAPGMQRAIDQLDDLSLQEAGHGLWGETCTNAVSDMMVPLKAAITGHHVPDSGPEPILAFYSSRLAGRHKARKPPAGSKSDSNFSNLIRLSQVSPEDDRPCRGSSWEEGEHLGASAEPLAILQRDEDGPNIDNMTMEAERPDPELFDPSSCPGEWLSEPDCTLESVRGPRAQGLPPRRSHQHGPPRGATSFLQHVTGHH
Chain of UniProt P30542 (whole entry, looked up): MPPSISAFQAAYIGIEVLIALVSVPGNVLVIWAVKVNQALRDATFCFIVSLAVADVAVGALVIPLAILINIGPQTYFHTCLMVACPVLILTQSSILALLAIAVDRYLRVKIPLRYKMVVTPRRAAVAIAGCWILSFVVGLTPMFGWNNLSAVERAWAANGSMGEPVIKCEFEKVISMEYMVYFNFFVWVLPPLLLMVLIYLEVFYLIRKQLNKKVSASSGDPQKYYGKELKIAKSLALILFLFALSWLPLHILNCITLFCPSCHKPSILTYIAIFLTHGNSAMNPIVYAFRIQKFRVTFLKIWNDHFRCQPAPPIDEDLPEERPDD

The inhibition of `CCN(c1cc(-c2ccc(CN3CCOCC3)cc2)cc(C(=O)NCc2c(C)cc(C)[nH]c2=O)c1C)C1CCOCC1` is reported as 0 ± 5% (Histone-lysine N-methyltransferase SMYD3 (SMYD3, Homo sapiens, UniProt Q9H7B4); enzyme activity, inhibitor; 1 µM).
For `C[N+](C)(C)C[C@H](O)CC(=O)[O-]`, “binding enthalpy (ΔH)” read -4.8 ± 0.7 kcal/mol (Methyl-accepting chemotaxis protein, ligand-binding domain (Pectobacterium atrosepticum, UniProt Q6D515); isothermal titration calorimetry; concentration not given).
`CC1(C)S[C@@H]2[C@H](NC(=O)[C@H](N)c3ccccc3)C(=O)N2[C@H]1C(=O)O` gave an MIC of over 16 µg/mL (Escherichia coli; clinical isolate RKI-No_607/16).
With `Cc1cc(NC(=O)c2cccc(NC(=O)/C=C/CN(C)C)c2)ccc1Nc1nccc(-c2cccnc2)n1` the remaining activity was 4% (Homeodomain-interacting protein kinase 4 (HIPK4, Homo sapiens, UniProt Q8NE63); enzyme activity, inhibitor; 1 µM; reference: vehicle).
The Hill coefficient of `COc1ccc2[nH]cc(CCNC(C)=O)c2c1` is reported as 0.7 (Melatonin receptor type 1A (MTNR1A, Homo sapiens, UniProt P48039); historical reference value).
`COc1ccn2c(c1)nc1c2c(=O)[nH]c(=O)n1Cc1ccccc1` has a radioligand displacement of 49% (Adenosine receptor A1 (ADORA1, Homo sapiens, UniProt P30542); 10 µM, added: [3H]DPCPX).
For `COc1c(N2C[C@@H]3CCCN[C@@H]3C2)c(F)cc2c(=O)c(C(=O)O)cn(C3CC3)c12`, the Km was 500 µM (SULT2A1; substrate).
`C[C@H](NC[C@H](O)CP(=O)(O)CC1CCCCC1)c1ccc(Cl)c(Cl)c1` has a Hill coefficient of 1 (Gamma-aminobutyric acid type B receptor subunit 1 (GABBR1, Homo sapiens, UniProt Q9UBS5); historical reference value).
For `C=CC(=O)N1CCC(C(=O)NCC(=O)N2CCN(c3nc(-c4cnc(N)nc4C(F)F)nc(N4CCOCC4)n3)CC2)CC1`, the remaining activity was 0% (Phosphatidylinositol 4,5-bisphosphate 3-kinase catalytic subunit alpha isoform (PIK3CA, Homo sapiens, UniProt P42336, I800L); kinase activity; 1 µM).
`COC(=O)[C@H](c1ccccc1Cl)N1CCc2sccc2C1` has a Km of 14.1 µM (CES2).
`Nc1cc(C(F)(F)F)c(-c2nc(N3CCOCC3)nc(N3CCOCC3)n2)cn1` gave a remaining binding of 7% (Phosphatidylinositol 3-kinase C2 domain-containing subunit gamma (PIK3C2G, Homo sapiens, UniProt O75747); KinomeScan competition binding; 10 µM).
The conversion of `CC1=CC(=O)CC(C)(C)C1=O` is reported as 86 to 96% (YqjM (Old Yellow Enzyme homolog); ene-reductase biotransformation, substrate).
With `CNC(C)C1CCC(N)C(OC2C(N)CC(N)C(OC3OCC(C)(O)C(NC)C3O)C2O)O1` (stereo not drawn) the MIC was 1 µg/mL (≈ 2.09 µM) (Escherichia coli; clinical isolate RKI-No_95/15).
`O=c1c2ccccc2nc2n1CCc1c-2[nH]c2ccccc12` has a relative potency of 2 (Aryl hydrocarbon receptor (Ahr, Rattus norvegicus, UniProt P41738); 50% effect level; reference: benzo[a]pyrene).
`Cc1nc(NC(=O)N2CCC[C@H]2C(N)=O)sc1-c1ccnc(C(C)(C)C(F)(F)F)c1` gave a remaining binding of 100% (Tyrosine-protein kinase JAK1, JH2 pseudokinase domain (JAK1, Homo sapiens, UniProt P23458); KinomeScan competition binding; 10 µM).
Under ATPase activity, `C[C@]12CCC(=NOCCN)C[C@@H]1C(=O)C[C@@H]1[C@@H]2CC[C@]2(C)C(=O)CC[C@@H]12` is recorded as “no effect” (SERCA2a; concentration not given).
With `CC(C)(O/N=C(\C(=O)N[C@@H]1C(=O)N2C(C(=O)[O-])=C(C[N+]3(CCNC(=O)c4ccc(O)c(O)c4Cl)CCCC3)CS[C@H]12)c1csc(N)n1)C(=O)O` the Km was 49.8 µM (AmpC beta-lactamase (Enterobacter); hydrolysis, substrate).
`Nc1nc2c(ncn2[C@@H]2O[C@H](COP(=O)(O)OP(=O)(O)O)[C@@H](O)[C@H]2O)c(=O)[nH]1` — result for binding: “binds” (MiD51; concentration not given).
The remaining binding of `Cc1c(CN2CCN(C(=O)[C@H](C)O)CC2)sc2c(N3CCOCC3)nc(-c3cnc(N)nc3)nc12` is reported as 100% (Phosphatidylinositol 4-kinase beta (PI4KB, Homo sapiens, UniProt Q9UBF8); KinomeScan competition binding; 10 µM).
The Km of `NCCC[C@H](N)C(=O)O` is reported as 6900 ± 300 µM (ornithine aminotransferase (Toxoplasma gondii, UniProt S8EY38); substrate turnover, substrate).
`CC(C)C[C@@H](C(=O)N[C@H](C(=O)OC1CCCC1)c1ccccc1)[C@H](O)C(=O)NO` has an inhibition of 82.9% (Aminopeptidase N (ANPEP, Homo sapiens, UniProt P15144); enzyme activity; 10 µM).
For `NCCN[C@H]1CC[C@H](CC(=O)N[C@H]2Cc3cccc(C(=O)O)c3OB2O)CC1`, inhibition read “no inhibition” (Metallo-beta-lactamase type 2 (Serratia marcescens, UniProt P52699); concentration not given).
For `O=C(Nc1nc2ccccc2[nH]1)c1ccccc1`, the response was 88% (luciferase; 10 µM, PubChem AID 1006).
With `Nc1cc(C(F)(F)F)c(-c2nc(N3CCOCC3)nc(N3CCOCC3)n2)cn1` the remaining activity was 100% (Mitogen-activated protein kinase kinase kinase 15 (MAP3K15, Homo sapiens, UniProt Q6ZN16); enzyme activity; 10 µM; reference: untreated).

Excerpt of the above:
For `NCCN[C@H]1CC[C@H](CC(=O)N[C@H]2Cc3cccc(C(=O)O)c3OB2O)CC1`, inhibition read “no inhibition” (Metallo-beta-lactamase type 2 (Serratia marcescens, UniProt P52699); concentration not given).
For `O=C(Nc1nc2ccccc2[nH]1)c1ccccc1`, the response was 88% (luciferase; 10 µM, PubChem AID 1006).
With `Nc1cc(C(F)(F)F)c(-c2nc(N3CCOCC3)nc(N3CCOCC3)n2)cn1` the remaining activity was 100% (Mitogen-activated protein kinase kinase kinase 15 (MAP3K15, Homo sapiens, UniProt Q6ZN16); enzyme activity; 10 µM; reference: untreated).
